# Published values of several laboratories.
# Each numbered part is a random draw from the data of one study; scales do not carry over between parts.

# Block 1 — technique: RNA Bind-n-Seq; molecule type: RNA; medium: in vitro; concentration: 1 µM; setting: whole 134-nt RNA, ends assumed; with: 150 mM KCl; baseline: input library; reading: higher = stronger binding
# Target: Ras GTPase-activating protein-binding protein 1, RRM domain (G3BP1, Homo sapiens, UniProt Q13283)
# Chain of UniProt Q13283 (whole entry, looked up): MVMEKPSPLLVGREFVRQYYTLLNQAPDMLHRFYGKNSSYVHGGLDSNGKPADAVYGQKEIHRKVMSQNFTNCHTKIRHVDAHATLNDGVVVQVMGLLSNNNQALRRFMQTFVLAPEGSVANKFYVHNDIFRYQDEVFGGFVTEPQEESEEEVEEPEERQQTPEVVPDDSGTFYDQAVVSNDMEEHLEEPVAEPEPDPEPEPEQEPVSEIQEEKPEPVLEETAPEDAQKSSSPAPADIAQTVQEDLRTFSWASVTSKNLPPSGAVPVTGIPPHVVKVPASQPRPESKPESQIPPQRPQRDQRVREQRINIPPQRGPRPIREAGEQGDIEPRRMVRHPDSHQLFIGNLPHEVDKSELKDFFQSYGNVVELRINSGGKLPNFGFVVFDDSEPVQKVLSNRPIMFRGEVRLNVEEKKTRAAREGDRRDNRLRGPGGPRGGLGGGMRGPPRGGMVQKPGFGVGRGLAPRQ
# Constant ends, left off below: GGGAGUUCUACAGUCCGACGAUC … UGGAAUUCUCGGGUGUCAAGG
Sequence,log2 enrichment
AGUCCUGUGCUACACAUCGUAUGUACCGAAUCGGGGAAAAAGGGGAGGGGAAAGGGGAAAGUAUUAUGUUACGCCGUUCGGAUCUGCACU,0.883
UCCUGUGCUACACAUCGUAUGUACCGAAUCGGAAAAAAGGAAAAAAGGGGAAAAAAGGGAAAGUAUUAUGUUACGCCGUUCGGAUCUGCA,-0.0598
CACAGACAACACGCACCCACACAGACACAGAGGGAAGGGGUUGGGAUGGGGACAGGGUGCACAGAAGGGCGGGGUAGGACCCCAGCCCCU,0.212
AGUCCUGUGCUACACAUCGUAUGUACCGAAUCGGGAAAAAGGGUGGGAAAAAAAGGGAAAGUAUUAUGUUACGCCGUUCGGAUCUGCACU,0.466
CACAGACAACACGCACCCACACAGACACAGAGGGAAGGGGUUGGGAUGGGGACAGGGUGCACAGCAGGGCGGGGUAGGACCCCAGCCCCG,-0.25
CAAGUCCUGUGCUACACAUCGUAUGUACCGAAUCGGUUUUUUUGGUUUUUGGAGGAAAGUAUUAUGUUACGCCGUUCGGAUCUGCACUUC,-0.301

# Block 2 — technique: universal PBM; molecule type: double-stranded DNA, one strand shown; medium: in vitro; concentration: not given; reading: higher = stronger binding
# Target: Sal-like protein 4, full length isoform B (SALL4, Homo sapiens, UniProt Q9UJQ4-2, residues 1-616)
# Setting: 8-mer, flanks averaged, mean of replicates
# Target sequence (chain): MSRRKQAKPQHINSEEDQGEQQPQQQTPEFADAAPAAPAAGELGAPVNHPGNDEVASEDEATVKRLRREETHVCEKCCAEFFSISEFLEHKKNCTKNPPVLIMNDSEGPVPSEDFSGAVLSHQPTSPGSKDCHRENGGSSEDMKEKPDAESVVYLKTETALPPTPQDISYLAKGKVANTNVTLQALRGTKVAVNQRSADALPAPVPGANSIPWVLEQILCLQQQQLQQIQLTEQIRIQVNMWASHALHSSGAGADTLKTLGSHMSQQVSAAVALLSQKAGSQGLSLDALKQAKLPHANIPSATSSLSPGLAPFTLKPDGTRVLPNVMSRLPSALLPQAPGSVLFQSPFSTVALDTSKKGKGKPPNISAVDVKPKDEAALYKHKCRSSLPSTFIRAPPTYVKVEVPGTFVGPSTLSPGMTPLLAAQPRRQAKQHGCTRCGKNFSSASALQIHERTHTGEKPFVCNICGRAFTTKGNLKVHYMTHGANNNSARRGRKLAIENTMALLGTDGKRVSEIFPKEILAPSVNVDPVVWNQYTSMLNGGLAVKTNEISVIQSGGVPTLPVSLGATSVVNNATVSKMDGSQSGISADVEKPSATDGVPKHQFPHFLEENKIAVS
Sequence,E-score
ACGACCGT,-0.223
CTAGATTC,0.00472
CACGGATG,0.0281
CAACTTAG,0.00702
TGTTATAA,0.374

# Block 3 — technique: RNA Bind-n-Seq; molecule type: RNA; medium: in vitro; concentration: 365 nM; baseline: no-protein control; reading: higher = stronger binding
# Target: RNA binding protein fox-1 homolog 2, RRM domain, GST-SBP tag (RBFOX2, Homo sapiens, UniProt O43251-10, residues 100-194)
# Setting: natural RNA segment, single round, ends assumed
# Constant ends, left off below: GGGAGUUCUACAGUCCGACGAUC … UGGAAUUCUCGGGUGCCAA
Sequence,RBNS enrichment (R)
GGCUCCCUCCUCAGCCUCCUGCCCACCCAGGGCCCUUUACUCUCUUCUCCCUCCAGACCUUCCUCUGACCCUUGCUGAACUGGGGUCCCUUUGUGAGUGUCUCAGUCUAG,0.764
UUUAUACGGAUUUCGGAUUUCUACCCACGUUUCCUCACUCUGUUUUCUAUAUAUUCUAUAUAAAUAUAUAUUGUGGAUGGCCGCCAUGGCGAGUGGUGGCUGGGGCUUUU,0.587
CUAUUUAUAGAGCCAAUGUGGGUUAAUAACUACUAUUUAUUGAGUGCCCGUUCCAUGCCAAGCAUUAGGCUGGGUGCUUUACAUAAGUUUAAUCCUCACAAUAGCCCUGU,0.369
CAAACCAAAUAACAUCUUUCAGUAAUUAUAGAAUGAUUUAUUUGGAAUAAAAUUUGUGCUUAUGAAUUAUAAAGGUCUAUAGCUUGGUGUACGGUCUUUCUACAGUAAGU,0.723
CCCCACCCUGUUUGGAUUUUUAAUUAAAAACUAGUAGUUCUCUUGGUGUUAAAACACUUCUGUCCUGUGAGGUUUCCCAAUGGUGUUUUUCUUGUAAAUGUGUUGGACAA,0.739
GUAAACGAUACAGGGAACUGGUUGAAGAGAUUGGAAUUUUAUUUAGUUGGCUUUGUUUUCCUUAAAGGAUAAAACUUGCAUUGGACAAUCAAGGACAAUGAAGCCUCACC,0.987

# Other studies, line by line
Substance,target,assay,test system,setting,scale,endpoint,value
"PhoQ, residues 284 288 289 292 302 303 TASMAF","PhoP, residues 12 14 15 18 19 QWHVF (Escherichia coli, UniProt P23836)","Sort-seq, refers to: YFP reporter",E. coli,"PhoQ-PhoP variant library, with: 10 µM Mg2+","baseline: high Mg2+ state, higher = stronger signaling",fold induction,12.1

# A few entries again (block 2):
Sequence,E-score
TGTTATAA,0.374
